Experimental data of several laboratories.
Each line is one published result; not all experiments were run side by side. Numbers after ± are the reported error.
Cell line: SK-MEL-28

SMILES | test | setting | scale | endpoint | value
N#Cc1c(-c2ccc(Cl)cc2)cc(-c2cccc3ccccc23)n2c(Cc3ccccc3)nnc12 | cell growth or viability, MTT | 72 h | – | IC50 | 1.58 µM
CC(=O)OC[C@H]1O[C@@H](Sc2sc(C(=O)c3ccc(Br)cc3)c(N)c2-c2nc3ccccc3s2)[C@H](OC(C)=O)[C@@H](OC(C)=O)[C@@H]1OC(C)=O | SRB | 10 µM, 48 h | relative to: untreated | growth | 70.7%
CC(=C(c1ccc(O)cc1)c1ccc(Cl)cc1)c1ccc(Cl)cc1 | cell growth or viability, SRB | – | – | GI50 | 0.81 µM
FC(F)(F)c1ccnc(-c2cc(C(F)(F)F)ccn2)c1.FC(F)(F)c1ccnc(-c2cc(C(F)(F)F)ccn2)c1.[Cl-].[Cl-].[Ru+2].c1csc(-c2ccc(-c3ccc(-c4ccc(-c5nc6c7cccnc7c7ncccc7c6[nH]5)s4)s3)s2)c1 | cell viability | normoxia, with: visible light | relative to: dark EC50 over light EC50 | mean phototherapeutic index | 6500
N#Cc1c(-c2ccc(Cl)cc2)cc(-c2cccc3ccccc23)nc1Nc1ccc(Nc2nc(-c3cccc4ccccc34)cc(-c3ccc(Cl)cc3)c2C#N)cc1 | cell growth or viability, MTT | 72 h | – | IC50 | 1.53 µM
FC(F)(F)c1ccnc(-c2cc(C(F)(F)F)ccn2)c1.FC(F)(F)c1ccnc(-c2cc(C(F)(F)F)ccn2)c1.[Cl-].[Cl-].[Ru+2].c1cnc2c(c1)ccc1cccnc12 | cell growth or viability, resazurin | dark | – | EC50 | > 300 µM
CC(C)(C)c1nc(-c2cccc(NS(=O)(=O)c3c(F)cccc3F)c2F)c(-c2ccnc(N)n2)s1.Cc1[nH]c2ccccc2c1CCNCc1ccc(/C=C/C(=O)NO)cc1 | flow cytometry | concentration not given, 48 h, concentration about IC50 | – | cells in G0/G1 phase | 8.11%
CCCCCCCCC1(CCCCCCCC)c2cc(C#Cc3cc4[n+]5c(c3)-c3cccc[n+]3[Ir-3]536([n+]5ccccc5-4)[n+]4ccccc4-c4cc(-c5ccccc5)cc([n+]43)-c3cccc[n+]36)ccc2-c2ccc(C#Cc3cc4[n+]5c(c3)-c3cccc[n+]3[Ir-3]536([n+]5ccccc5-4)[n+]4ccccc4-c4cc(-c5ccccc5)cc([n+]43)-c3cccc[n+]36)cc21.F[P-](F)(F)(F)(F)F.F[P-](F)(F)(F)(F)F.F[P-](F)(F)(F)(F)F.F[P-](F)(F)(F)(F)F.F[P-](F)(F)(F)(F)F.F[P-](F)(F)(F)(F)F | cell viability, resazurin | 16 h before light, visible light 100 J/cm2 | – | EC50 | 0.83 ± 0.05 µM
N#Cc1c(-c2cccs2)cc(-c2cccc3ccccc23)nc1Nc1ccc(Nc2nc(-c3cccc4ccccc34)cc(-c3cccs3)c2C#N)cc1 | cell growth or viability, MTT | 72 h | – | IC50 | 0.563 µM
FC(F)(F)c1ccnc(-c2cc(C(F)(F)F)ccn2)c1.FC(F)(F)c1ccnc(-c2cc(C(F)(F)F)ccn2)c1.[Cl-].[Cl-].[Ru+2].c1csc(-c2ccc(-c3ccc(-c4nc5c6cccnc6c6ncccc6c5[nH]4)s3)s2)c1 | cell viability | 100 J/cm2 light, normoxia, with: visible light 400-700 nm | – | EC50 | 0.21 µM
CCC(=C(c1ccc(Cl)cc1)c1ccc(OCCCN(C)C)cc1)c1ccc(OC)cc1 | cell growth or viability, SRB | – | – | GI50 | 1.33 µM
COc1ccc2c(c1)/C(=N\Nc1nnc3n1N=C(c1ccccc1)CS3)C(=O)N2 | cell growth or viability, SRB | 10 µM | – | inhibition | 15%
CCCCCCCCC1(CCCCCCCC)c2cc(-c3cc4[n+]5c(c3)-c3cccc[n+]3[Ir-3]536([c]5ccccc5-c5cc(-c7ccccc7)cc([n+]53)-c3cccc[c]36)[n+]3ccccc3-4)ccc2-c2ccc(-c3cc4[n+]5c(c3)-c3cccc[n+]3[Ir-3]536([c]5ccccc5-c5cc(-c7ccccc7)cc([n+]53)-c3cccc[c]36)[n+]3ccccc3-4)cc21.F[P-](F)(F)(F)(F)F.F[P-](F)(F)(F)(F)F | cell viability, resazurin | 16 h plus 48 h, dark | – | EC50 | 69.5 ± 1 µM
CC/C=C\C/C=C\C/C=C\C/C=C\C/C=C\C/C=C\CCC(=O)Nc1ccn(C2OC(CO)C(O)C2(F)F)c(=O)n1 (centres unmarked) | NCI60 screen | – | – | TGI | 23.3 µM
CC(=O)OC[C@H]1O[C@@H](Sc2sc(C(=O)c3ccc(C)cc3)c(N)c2-c2nc3ccccc3s2)[C@H](OC(C)=O)[C@@H](OC(C)=O)[C@H]1OC(C)=O | SRB | 10 µM, 48 h | relative to: untreated | growth | 103%
CCCCCCCCC1(CCCCCCCC)c2cc(-c3cc4[n+]5c(c3)-c3cccc[n+]3[Ir-3]536([n+]5ccccc5-c5cc(-c7ccccc7)cc([n+]53)-c3cccc[n+]36)[n+]3ccccc3-4)ccc2-c2ccc(-c3cc4[n+]5c(c3)-c3cccc[n+]3[Ir-3]536([n+]5ccccc5-c5cc(-c7ccccc7)cc([n+]53)-c3cccc[n+]36)[n+]3ccccc3-4)cc21.F[P-](F)(F)(F)(F)F.F[P-](F)(F)(F)(F)F.F[P-](F)(F)(F)(F)F.F[P-](F)(F)(F)(F)F.F[P-](F)(F)(F)(F)F.F[P-](F)(F)(F)(F)F | – | red light 100 J/cm2 | relative to: dark EC50 over red-light EC50 | phototherapeutic index | 1.4
FC(F)(F)c1ccnc(-c2cc(C(F)(F)F)ccn2)c1.FC(F)(F)c1ccnc(-c2cc(C(F)(F)F)ccn2)c1.[Cl-].[Cl-].[Ru+2].c1csc(-c2nc3c4cccnc4c4ncccc4c3[nH]2)c1 | cell viability | normoxia, with: green light 523 nm, 100 J/cm2 | relative to: dark EC50 over light EC50 | phototherapeutic index | 2

For quick reference, copied from above:
SMILES | test | setting | scale | endpoint | value
N#Cc1c(-c2ccc(Cl)cc2)cc(-c2cccc3ccccc23)nc1Nc1ccc(Nc2nc(-c3cccc4ccccc34)cc(-c3ccc(Cl)cc3)c2C#N)cc1 | cell growth or viability, MTT | 72 h | – | IC50 | 1.53 µM
FC(F)(F)c1ccnc(-c2cc(C(F)(F)F)ccn2)c1.FC(F)(F)c1ccnc(-c2cc(C(F)(F)F)ccn2)c1.[Cl-].[Cl-].[Ru+2].c1cnc2c(c1)ccc1cccnc12 | cell growth or viability, resazurin | dark | – | EC50 | > 300 µM
